Published values from different studies.
Lines come from different studies, so protocols differ.
TMPRSS2: Transmembrane protease serine 2 (TMPRSS2, Homo sapiens, UniProt O15393)
Chain of UniProt O15393 (whole entry, looked up): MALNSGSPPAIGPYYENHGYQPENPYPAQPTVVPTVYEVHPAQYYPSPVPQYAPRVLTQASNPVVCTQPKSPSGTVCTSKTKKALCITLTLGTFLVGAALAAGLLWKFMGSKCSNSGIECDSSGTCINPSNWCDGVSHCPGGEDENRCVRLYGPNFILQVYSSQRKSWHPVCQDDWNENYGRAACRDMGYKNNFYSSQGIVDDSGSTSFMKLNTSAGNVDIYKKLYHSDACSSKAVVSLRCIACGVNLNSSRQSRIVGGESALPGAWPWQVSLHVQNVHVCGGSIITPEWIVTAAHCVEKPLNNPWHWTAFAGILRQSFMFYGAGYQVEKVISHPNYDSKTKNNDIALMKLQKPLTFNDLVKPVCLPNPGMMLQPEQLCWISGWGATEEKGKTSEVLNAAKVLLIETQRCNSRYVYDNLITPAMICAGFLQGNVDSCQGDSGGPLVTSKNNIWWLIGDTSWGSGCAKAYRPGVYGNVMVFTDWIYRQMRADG
Chain of UniProt P41144 (whole entry, looked up): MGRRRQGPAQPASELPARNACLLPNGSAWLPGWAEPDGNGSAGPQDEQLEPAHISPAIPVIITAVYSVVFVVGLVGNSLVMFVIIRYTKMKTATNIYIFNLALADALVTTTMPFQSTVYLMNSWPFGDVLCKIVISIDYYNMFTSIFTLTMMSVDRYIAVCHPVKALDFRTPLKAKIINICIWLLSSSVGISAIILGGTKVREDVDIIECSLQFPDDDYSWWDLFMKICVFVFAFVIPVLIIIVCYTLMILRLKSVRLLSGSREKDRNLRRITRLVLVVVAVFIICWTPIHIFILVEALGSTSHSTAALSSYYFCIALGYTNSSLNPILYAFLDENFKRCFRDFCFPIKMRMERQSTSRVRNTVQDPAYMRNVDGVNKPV
Chain of UniProt P0C1S8 (whole entry, looked up): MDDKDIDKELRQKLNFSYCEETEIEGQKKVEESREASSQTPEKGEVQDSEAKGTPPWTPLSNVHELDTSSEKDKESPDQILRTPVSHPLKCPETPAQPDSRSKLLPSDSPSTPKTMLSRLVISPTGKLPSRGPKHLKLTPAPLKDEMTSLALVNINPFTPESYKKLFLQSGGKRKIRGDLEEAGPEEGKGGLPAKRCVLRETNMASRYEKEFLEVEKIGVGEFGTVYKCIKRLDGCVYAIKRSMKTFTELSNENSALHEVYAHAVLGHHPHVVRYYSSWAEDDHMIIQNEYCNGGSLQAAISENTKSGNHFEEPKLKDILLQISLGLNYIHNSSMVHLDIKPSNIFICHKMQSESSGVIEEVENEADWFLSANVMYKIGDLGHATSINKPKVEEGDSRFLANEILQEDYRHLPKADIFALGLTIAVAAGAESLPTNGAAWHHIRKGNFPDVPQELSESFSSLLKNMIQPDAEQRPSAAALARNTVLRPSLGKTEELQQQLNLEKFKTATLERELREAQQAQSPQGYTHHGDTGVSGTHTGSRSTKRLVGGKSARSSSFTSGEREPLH
Chain of UniProt O14730 (whole entry, looked up): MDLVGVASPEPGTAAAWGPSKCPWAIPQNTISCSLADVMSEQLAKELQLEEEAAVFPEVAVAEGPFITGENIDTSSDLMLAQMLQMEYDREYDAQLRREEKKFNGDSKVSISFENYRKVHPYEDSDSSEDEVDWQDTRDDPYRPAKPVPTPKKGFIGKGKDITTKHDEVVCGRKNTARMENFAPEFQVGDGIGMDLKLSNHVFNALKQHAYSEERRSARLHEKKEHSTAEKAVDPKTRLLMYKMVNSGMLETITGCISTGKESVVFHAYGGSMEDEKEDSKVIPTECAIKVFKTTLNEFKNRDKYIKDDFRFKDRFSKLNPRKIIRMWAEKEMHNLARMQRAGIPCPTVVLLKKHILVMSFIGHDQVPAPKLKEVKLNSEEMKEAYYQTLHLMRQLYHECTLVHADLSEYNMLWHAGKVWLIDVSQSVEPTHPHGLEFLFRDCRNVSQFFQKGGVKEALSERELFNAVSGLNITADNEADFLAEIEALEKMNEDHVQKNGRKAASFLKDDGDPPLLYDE
Chain of UniProt O75582 (whole entry, looked up): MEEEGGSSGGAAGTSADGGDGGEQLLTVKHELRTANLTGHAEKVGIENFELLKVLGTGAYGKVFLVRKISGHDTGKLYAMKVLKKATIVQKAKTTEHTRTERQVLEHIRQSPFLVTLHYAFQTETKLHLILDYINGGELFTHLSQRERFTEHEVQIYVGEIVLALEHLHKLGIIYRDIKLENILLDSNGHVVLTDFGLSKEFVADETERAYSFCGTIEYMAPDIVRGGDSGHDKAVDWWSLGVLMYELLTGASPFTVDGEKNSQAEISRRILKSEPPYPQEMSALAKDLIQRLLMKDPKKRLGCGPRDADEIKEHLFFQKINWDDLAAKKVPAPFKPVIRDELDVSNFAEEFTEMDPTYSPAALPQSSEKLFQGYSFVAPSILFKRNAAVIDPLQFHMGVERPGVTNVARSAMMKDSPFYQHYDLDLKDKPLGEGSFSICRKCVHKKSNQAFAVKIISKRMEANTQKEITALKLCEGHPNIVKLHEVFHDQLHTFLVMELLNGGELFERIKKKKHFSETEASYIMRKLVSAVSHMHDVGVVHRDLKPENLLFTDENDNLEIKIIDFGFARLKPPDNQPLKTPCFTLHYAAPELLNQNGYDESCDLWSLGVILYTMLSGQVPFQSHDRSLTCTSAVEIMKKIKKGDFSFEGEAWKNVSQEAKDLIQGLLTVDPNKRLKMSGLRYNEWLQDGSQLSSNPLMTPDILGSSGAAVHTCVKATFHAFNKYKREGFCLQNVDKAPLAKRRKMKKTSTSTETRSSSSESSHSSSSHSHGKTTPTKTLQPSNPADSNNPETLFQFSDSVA
Chain of UniProt P53341 (whole entry, looked up): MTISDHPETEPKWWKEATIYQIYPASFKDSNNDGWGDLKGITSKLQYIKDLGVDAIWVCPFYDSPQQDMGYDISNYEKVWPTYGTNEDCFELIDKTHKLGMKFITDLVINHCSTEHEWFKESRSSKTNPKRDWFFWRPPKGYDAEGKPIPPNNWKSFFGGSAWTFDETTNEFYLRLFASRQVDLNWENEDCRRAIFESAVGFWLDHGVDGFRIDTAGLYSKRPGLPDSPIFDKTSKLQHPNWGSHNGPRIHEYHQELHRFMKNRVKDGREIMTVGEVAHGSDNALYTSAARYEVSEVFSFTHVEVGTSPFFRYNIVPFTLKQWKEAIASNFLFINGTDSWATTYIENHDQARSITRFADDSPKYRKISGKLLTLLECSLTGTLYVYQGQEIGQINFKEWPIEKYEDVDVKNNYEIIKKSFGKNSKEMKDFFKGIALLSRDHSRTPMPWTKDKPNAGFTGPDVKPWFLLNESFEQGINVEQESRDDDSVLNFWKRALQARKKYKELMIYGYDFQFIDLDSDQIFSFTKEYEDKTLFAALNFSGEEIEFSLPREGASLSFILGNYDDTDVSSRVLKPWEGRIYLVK
Chain of UniProt Q92772 (whole entry, looked up): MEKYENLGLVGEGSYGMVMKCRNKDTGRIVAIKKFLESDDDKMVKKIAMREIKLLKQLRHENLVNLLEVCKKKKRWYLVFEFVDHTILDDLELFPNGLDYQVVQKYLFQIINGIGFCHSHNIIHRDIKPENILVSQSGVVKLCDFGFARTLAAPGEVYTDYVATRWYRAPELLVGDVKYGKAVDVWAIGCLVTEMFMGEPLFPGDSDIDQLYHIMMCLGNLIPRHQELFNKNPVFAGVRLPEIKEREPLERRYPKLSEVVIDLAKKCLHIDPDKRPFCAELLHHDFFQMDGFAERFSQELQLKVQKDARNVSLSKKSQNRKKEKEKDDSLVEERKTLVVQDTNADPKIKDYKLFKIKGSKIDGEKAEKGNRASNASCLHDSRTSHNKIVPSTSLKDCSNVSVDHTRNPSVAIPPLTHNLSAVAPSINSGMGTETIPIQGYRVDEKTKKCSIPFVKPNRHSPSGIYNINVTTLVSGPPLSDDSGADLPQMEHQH
Chain of UniProt P41594 (whole entry, looked up): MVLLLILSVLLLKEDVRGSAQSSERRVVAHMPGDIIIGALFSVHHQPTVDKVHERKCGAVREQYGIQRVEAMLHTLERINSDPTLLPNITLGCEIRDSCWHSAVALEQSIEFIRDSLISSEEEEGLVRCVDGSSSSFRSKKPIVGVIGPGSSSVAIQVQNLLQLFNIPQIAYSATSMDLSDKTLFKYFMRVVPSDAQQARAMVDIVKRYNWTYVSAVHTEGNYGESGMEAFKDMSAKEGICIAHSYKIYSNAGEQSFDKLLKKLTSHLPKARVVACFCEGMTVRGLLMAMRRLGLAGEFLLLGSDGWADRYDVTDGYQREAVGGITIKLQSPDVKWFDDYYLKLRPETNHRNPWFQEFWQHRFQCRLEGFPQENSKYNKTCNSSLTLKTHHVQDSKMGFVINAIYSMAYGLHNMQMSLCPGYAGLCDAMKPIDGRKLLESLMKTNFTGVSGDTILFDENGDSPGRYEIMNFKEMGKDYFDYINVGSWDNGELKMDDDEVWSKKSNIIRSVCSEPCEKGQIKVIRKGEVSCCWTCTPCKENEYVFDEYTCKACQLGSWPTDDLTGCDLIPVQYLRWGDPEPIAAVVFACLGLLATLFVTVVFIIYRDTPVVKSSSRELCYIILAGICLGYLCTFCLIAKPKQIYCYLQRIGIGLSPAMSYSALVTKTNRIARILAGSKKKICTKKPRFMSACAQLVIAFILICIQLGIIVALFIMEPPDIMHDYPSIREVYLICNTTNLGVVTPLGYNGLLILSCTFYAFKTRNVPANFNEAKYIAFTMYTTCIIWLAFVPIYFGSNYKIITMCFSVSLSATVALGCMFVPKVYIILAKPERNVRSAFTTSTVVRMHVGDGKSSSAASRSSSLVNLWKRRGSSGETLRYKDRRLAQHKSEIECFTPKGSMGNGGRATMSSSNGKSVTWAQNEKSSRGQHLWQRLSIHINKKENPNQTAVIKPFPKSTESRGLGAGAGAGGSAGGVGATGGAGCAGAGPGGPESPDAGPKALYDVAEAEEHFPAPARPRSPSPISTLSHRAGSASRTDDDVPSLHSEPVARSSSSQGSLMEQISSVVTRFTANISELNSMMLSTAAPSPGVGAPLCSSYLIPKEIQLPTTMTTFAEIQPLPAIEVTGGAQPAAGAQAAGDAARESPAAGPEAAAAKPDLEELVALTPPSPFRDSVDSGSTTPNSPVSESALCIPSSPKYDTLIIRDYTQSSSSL

CCCCCc1ccccc1C/C=C\C/C=C\C/C=C\CCCC(=O)OC(CO)CO
Emax (Cannabinoid receptor 1 (CNR1, Homo sapiens, UniProt P21554); β-arrestin recruitment, agonist): 4%

Cc1nc(-c2nc(NCc3ccncc3)ncc2-c2ccsc2)sc1C
IC50 (Dihydroorotate dehydrogenase (quinone), mitochondrial (PFF0160c, Plasmodium falciparum, UniProt Q08210, E182D); enzyme activity, inhibitor, absorbance): 3.41 µM

CN1C(=S)N(c2ccccc2)C(=O)/C1=C1/C(=O)N(C)c2ccc(Cl)cc21
inhibition (Alpha-glucosidase MAL12 (MAL12, Saccharomyces cerevisiae S288c, UniProt P53341); enzyme activity, inhibitor, absorbance; 50 µM): 21.5%

CCCC[C@H]1CNCCN1C[C@@H]1CCCN1C[C@@H](Cc1ccc2ccccc2c1)N1CCN(CCC23CC4CC(CC(C4)C2)C3)[C@H]([C@@H](C)O)C1
remaining binding (Kappa-type opioid receptor (OPRK1, Cavia porcellus, UniProt P41144); ligand displacement, radioligand; 0.5 µM, pH 7.5): 97.3%

Nc1ncc(-c2nc(N3CCOCC3)nc(N3CCOCC3)n2)c(C(F)F)n1
remaining binding (Epidermal growth factor receptor (EGFR, Homo sapiens, UniProt P00533, T790M); cell-free assay, competition with immobilised ligand; 10 µM): 51%

CC(C)CC(=O)OC[C@H]1O[C@@](C#N)(c2ccc3c(N)ncnn23)[C@H](O)[C@@H]1O
inhibition (Metabotropic glutamate receptor 5 (GRM5, Homo sapiens, UniProt P41594); cell-free assay; 20 µM): 15%

Cn1c(C(=O)[C@H](CCCNC(=N)N)NC(=O)[C@H](Cc2ccccc2)NC(=O)[C@H](CCC(N)=O)NC(=O)CCCCNC(=N)N)nc2ccccc21
activity vs control (TMPRSS2; enzyme activity, inhibitor; 1 nM): 100%

Cc1nn(C)cc1-c1nc2c(N3CCN(Cc4ccc(Cl)cc4)CC3)c(Cl)cnc2[nH]1
remaining binding (Cyclin-dependent kinase-like 2 (CDKL2, Homo sapiens, UniProt Q92772); binding, competition with immobilised ligand; 1 µM): 29%

CC(=O)N[C@@H](CCC(N)=O)C(=O)N[C@@H](Cc1ccccc1)C(=O)NN(CCCNC(=N)N)C(=O)c1nc2ccccc2s1
activity vs control (TMPRSS2; enzyme activity, inhibitor; 1 nM): 100%

[2H]c1c([2H])c([C@]2([2H])CCCN2C(=O)C(C)(C)Oc2ccc3cn[nH]c3c2)c([2H])c([2H])c1C([2H])([2H])[2H]
remaining binding (Wee1-like protein kinase 2 (WEE2, Homo sapiens, UniProt P0C1S8); binding, competition with immobilised ligand; 1 µM): 75%

CC(=O)N[C@@H](CCC(N)=O)C(=O)N[C@@H](Cc1ccccc1)C(=O)N[C@@H](CCCNC(=N)N)C(=O)c1nc2ccccc2[nH]1
activity vs control (TMPRSS2; enzyme activity, inhibitor; 1 nM): 91%

Cc1nc2ccccc2n1[C@@H]1C[C@H]2CC[C@@H](C1)N2Cc1nccn1-c1ccccc1
IC50 (Dihydroorotate dehydrogenase (quinone), mitochondrial (PFF0160c, Plasmodium falciparum, UniProt Q08210); enzyme activity, inhibitor, absorbance): 0.287 µM

COc1ncccc1-c1cnn2ccc(N3CCN(C(=O)OC(C)C)CC3)nc12
remaining binding (Serine/threonine-protein kinase RIO3 (RIOK3, Homo sapiens, UniProt O14730); binding, competition with immobilised ligand; 1 µM): 6.6%

N=C(N)NCCC[C@H](N)C(=O)N[C@@H](CCC(N)=O)C(=O)N[C@@H](CC(=O)O)C(=O)N[C@H](CCCNC(=N)N)C(=O)c1nc2ccccc2s1
activity vs control (TMPRSS2; enzyme activity, inhibitor; 1 nM): 87%

C#Cc1n[nH]c2c(-c3cn(C(C)c4ccccn4)c(=O)[nH]c3=O)cc(F)cc12 (stereo not drawn)
inhibition (Ribosomal protein S6 kinase alpha-5 (RPS6KA5, Homo sapiens, UniProt O75582); enzyme activity, inhibitor; 1 µM): 7.6%

Excerpt of the above:
COc1ncccc1-c1cnn2ccc(N3CCN(C(=O)OC(C)C)CC3)nc12
remaining binding (Serine/threonine-protein kinase RIO3 (RIOK3, Homo sapiens, UniProt O14730); binding, competition with immobilised ligand; 1 µM): 6.6%

C#Cc1n[nH]c2c(-c3cn(C(C)c4ccccn4)c(=O)[nH]c3=O)cc(F)cc12 (stereo not drawn)
inhibition (Ribosomal protein S6 kinase alpha-5 (RPS6KA5, Homo sapiens, UniProt O75582); enzyme activity, inhibitor; 1 µM): 7.6%
